Measurements of several laboratories.
Numbered parts are unrelated; each lists some results of a single study. Several values in a cell are separate wells, animals, samples, runs or records.
Chain of UniProt P08173 (whole entry, looked up): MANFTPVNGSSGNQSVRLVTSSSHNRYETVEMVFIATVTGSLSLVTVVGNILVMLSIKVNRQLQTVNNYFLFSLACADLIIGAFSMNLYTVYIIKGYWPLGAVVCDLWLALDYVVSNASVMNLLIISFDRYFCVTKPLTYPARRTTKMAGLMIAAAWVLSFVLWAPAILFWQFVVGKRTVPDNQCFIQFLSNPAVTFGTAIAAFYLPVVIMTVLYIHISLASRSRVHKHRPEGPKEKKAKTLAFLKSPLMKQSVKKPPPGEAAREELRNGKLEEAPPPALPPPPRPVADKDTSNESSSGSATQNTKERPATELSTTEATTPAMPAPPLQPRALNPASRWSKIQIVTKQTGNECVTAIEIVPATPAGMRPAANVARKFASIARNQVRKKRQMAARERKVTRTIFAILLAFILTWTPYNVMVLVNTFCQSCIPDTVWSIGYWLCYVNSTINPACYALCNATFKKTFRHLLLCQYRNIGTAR
Chain of UniProt Q9Y5N1 (whole entry, looked up): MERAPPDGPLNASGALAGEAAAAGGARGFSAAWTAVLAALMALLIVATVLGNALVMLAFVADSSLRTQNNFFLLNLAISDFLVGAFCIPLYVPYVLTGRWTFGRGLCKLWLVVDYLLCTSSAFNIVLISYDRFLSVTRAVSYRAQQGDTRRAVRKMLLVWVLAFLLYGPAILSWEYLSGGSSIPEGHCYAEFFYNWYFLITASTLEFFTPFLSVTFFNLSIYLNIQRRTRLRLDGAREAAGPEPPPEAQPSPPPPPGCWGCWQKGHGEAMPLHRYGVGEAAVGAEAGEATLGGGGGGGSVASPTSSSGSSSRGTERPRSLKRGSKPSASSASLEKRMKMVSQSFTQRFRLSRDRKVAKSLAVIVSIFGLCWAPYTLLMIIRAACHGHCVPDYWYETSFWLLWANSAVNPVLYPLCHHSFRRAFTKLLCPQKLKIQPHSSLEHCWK
Chain of UniProt P35368 (whole entry, looked up): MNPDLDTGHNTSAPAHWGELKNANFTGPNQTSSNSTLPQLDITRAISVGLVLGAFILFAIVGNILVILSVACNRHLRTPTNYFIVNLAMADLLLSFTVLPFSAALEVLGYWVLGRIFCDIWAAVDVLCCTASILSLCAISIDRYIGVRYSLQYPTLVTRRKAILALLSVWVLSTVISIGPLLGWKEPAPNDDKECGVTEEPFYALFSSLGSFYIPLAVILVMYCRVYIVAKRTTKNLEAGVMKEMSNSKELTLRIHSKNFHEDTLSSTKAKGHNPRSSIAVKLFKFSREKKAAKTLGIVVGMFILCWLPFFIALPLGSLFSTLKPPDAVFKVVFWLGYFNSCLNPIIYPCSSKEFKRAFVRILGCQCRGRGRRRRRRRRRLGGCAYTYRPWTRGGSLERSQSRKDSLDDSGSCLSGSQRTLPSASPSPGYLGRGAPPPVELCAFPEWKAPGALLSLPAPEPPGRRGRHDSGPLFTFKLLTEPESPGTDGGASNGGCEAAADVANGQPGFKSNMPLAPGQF
Chain of UniProt P08912 (whole entry, looked up): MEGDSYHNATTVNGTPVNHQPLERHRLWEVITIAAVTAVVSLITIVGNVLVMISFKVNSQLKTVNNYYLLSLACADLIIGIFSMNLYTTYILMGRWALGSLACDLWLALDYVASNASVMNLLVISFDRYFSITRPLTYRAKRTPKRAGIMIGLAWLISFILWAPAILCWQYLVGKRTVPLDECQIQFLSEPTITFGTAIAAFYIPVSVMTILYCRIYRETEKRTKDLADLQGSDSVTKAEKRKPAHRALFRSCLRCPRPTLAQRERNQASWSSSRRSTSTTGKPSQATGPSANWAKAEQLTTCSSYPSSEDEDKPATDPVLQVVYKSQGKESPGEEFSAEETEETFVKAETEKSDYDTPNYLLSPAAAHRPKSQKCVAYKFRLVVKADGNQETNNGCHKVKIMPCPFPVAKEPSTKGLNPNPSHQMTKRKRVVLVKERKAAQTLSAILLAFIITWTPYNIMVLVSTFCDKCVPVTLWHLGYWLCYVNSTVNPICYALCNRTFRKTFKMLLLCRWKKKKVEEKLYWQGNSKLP
Chain of UniProt P08172 (whole entry, looked up): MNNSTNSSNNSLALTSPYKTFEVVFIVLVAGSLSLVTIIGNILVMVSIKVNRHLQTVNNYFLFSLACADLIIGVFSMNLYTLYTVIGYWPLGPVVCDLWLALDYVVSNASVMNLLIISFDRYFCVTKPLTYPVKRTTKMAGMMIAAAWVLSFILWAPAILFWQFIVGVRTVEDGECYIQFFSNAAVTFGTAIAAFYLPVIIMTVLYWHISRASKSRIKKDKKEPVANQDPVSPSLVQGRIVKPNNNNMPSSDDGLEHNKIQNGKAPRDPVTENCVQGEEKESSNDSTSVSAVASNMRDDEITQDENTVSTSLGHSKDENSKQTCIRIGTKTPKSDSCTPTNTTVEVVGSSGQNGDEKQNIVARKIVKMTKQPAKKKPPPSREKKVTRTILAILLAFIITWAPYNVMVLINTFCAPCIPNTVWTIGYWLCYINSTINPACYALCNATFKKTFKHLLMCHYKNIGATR
Chain of UniProt P50406 (whole entry, looked up): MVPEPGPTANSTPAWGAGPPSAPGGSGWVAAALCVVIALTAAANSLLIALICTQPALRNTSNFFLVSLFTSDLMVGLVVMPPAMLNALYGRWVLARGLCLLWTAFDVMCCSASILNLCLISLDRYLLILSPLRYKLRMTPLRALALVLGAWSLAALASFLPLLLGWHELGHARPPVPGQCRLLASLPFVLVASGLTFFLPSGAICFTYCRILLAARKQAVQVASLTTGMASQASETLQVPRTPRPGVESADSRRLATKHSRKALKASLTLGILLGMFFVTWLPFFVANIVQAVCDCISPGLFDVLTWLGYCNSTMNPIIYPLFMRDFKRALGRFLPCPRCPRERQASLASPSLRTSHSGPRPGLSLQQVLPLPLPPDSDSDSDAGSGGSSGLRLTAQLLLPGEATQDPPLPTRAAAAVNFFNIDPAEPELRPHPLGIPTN
Chain of UniProt P35348 (whole entry, looked up): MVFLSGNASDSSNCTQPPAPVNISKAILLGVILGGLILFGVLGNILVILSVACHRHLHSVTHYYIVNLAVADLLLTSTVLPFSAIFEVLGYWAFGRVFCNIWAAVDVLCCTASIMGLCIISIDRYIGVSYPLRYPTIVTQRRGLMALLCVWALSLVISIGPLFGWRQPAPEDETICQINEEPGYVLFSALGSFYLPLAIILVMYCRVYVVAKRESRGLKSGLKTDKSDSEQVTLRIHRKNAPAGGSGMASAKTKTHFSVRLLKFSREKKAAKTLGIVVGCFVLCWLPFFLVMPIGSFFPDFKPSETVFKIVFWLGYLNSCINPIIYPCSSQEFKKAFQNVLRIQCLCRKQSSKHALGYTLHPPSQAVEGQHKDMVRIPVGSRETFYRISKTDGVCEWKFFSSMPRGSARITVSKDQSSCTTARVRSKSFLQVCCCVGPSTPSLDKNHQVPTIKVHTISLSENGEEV
Chain of UniProt P25021 (whole entry, looked up): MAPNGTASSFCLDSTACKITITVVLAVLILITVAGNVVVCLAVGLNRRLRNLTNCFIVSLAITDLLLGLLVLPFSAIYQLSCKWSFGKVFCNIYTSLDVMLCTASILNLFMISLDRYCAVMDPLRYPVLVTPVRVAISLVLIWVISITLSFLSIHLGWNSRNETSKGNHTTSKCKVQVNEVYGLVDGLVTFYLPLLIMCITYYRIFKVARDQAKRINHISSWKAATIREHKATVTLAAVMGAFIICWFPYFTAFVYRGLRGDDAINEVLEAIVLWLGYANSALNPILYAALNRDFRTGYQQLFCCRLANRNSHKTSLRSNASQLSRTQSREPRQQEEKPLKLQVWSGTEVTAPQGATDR
Chain of UniProt Q5BJF2 (whole entry, looked up): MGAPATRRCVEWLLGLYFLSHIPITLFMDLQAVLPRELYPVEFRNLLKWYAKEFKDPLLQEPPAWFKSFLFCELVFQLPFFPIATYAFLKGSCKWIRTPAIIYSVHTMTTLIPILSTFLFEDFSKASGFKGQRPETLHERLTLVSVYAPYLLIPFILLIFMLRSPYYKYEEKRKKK

Block 1
Target: Eukaryotic initiation factor 4A-III (Homo sapiens, UniProt P38919)
Chain of UniProt P38919 (whole entry, looked up): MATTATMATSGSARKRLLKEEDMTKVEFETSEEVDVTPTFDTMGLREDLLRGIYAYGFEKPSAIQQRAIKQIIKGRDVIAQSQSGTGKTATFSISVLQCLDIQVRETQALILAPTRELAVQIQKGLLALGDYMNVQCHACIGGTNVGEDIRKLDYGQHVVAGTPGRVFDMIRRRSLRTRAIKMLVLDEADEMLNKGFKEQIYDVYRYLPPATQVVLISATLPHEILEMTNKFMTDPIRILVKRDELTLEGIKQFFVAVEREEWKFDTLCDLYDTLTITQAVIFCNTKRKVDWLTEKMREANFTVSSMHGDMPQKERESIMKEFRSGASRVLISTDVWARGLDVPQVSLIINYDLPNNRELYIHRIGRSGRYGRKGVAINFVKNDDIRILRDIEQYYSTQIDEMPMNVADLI
Observed: RNA clamping
Method: fluorescence polarization
Tested at: concentration not given
Added: FAM-labelled poly r(AG)8 RNA
Structure (SMILES) | fluorescence polarization change
COC(=O)[C@@H]1[C@@H](c2ccccc2)[C@]2(c3ccc(OC)cc3)Oc3cc(OC)cc(OC)c3[C@@]23NC(C(C)C)=N[C@@]13O | 19.7 mP
O[C@H]1C[C@@H](c2ccccc2)[C@]2(c3ccc(Cl)cc3)Oc3cc(OCCN4CCCC4)ccc3[C@]12O | 73.6 mP
COC(=O)[C@@H]1[C@@H](c2ccccc2)[C@]2(c3ccc(OC)cc3)Oc3cc(OC)cc(OC)c3[C@@]23NC(C2CCC2)=N[C@@]13O | 24.9 mP
COc1ccc([C@@]23Oc4cc(OC)cc(OC)c4[C@]2(O)[C@H](O)[C@H](C(=O)c2ccco2)[C@H]3c2ccccc2)cc1 | 17.2 mP and 6.8 mP
CCOC(=O)[C@H]1[C@@H](O)[C@@]2(O)c3c(OC)cc(OC)cc3O[C@@]2(c2ccc(OC)cc2)[C@@H]1c1ccc(Br)cc1 | -4.3 mP
COc1ccc([C@]23[C@@H](c4ccccc4)C[C@@H](O)[C@@]2(O)c2c(F)cccc2N3C)cc1 | 9 mP
COc1ccc([C@]23[C@H](c4ccccc4)C[C@@H](O)[C@@]2(O)c2c(OC)cccc2N3C)cc1 | -5.8 mP
COc1ccc([C@@]23Oc4cc(O)cc(OC)c4[C@]2(O)c2nc4n(c(=O)c2[C@H]3c2ccccc2)CCC4)cc1 | 28.1 mP
C#CCCCOC(=O)/C=C/Cn1c(-c2ccccc2)nc2c(c1=O)[C@@H](c1ccccc1)[C@]1(c3ccc(OC)cc3)Oc3cc(OC)cc(OC)c3[C@]21O | 5.2 mP
CCOCCOCCN(OC)C(=O)[C@H]1[C@@H](O)[C@@]2(O)c3c(OC)cc(OC)cc3O[C@@]2(c2ccc(OC)cc2)[C@@H]1c1ccccc1 | 10.8 mP
COC(=O)[C@@H]1[C@@H](c2ccccc2)[C@]2(c3ccc(OC)cc3)Oc3cc(OC)cc(OC)c3[C@@]23NC(C2CCCCC2)=N[C@@]13O | 43.2 mP
COc1ccc([C@@]23Oc4cc(OC)cc(OC)c4[C@]2(O)[C@H](O)[C@H](C(=O)NOCc2ccccc2)[C@H]3c2ccccc2)cc1 | 5.6 mP
COC(=O)[C@H]1[C@@H](O)[C@@]2(O)c3c(OC)cc(OS(=O)(=O)c4ccc(C)cc4)cc3O[C@@]2(c2ccc(OC)cc2)[C@@H]1c1ccccc1 | -4.8 mP
C#CCOCCOCCNC(=O)CCCn1c(-c2ccccc2)nc2c(c1=O)[C@@H](c1ccccc1)[C@]1(c3ccc(OC)cc3)Oc3cc(OC)cc(OC)c3[C@]21O | 17.6 mP
COC(=O)[C@H]1[C@@H](O)[C@@]2(O)c3c(OC)cc(OC)cc3N(C)[C@@]2(c2ccc(Br)cc2)[C@@H]1c1ccccc1 | 5.9 mP
COc1ccc([C@]23Oc4cc(OC)cc(OC)c4[C@@]2(O)c2nc(-c4cccc(OC)c4)[nH]c(=O)c2[C@@H]3c2ccccc2)cc1 | 15 mP
COC(=O)[C@@H]1[C@@H](c2ccccc2)[C@]2(c3ccc(OC)cc3)Oc3cc(OC)cc(OC)c3[C@@]23NC(N2CCOCC2)=N[C@@]13O | 30.4 mP
C#CCOc1ccc(-c2nc3c(c(=O)n2CC#C)[C@@H](c2ccccc2)[C@]2(c4ccc(OC)cc4)Oc4cc(OC)cc(OC)c4[C@]32O)cc1 | 2 mP

Block 2
SMILES: CCOc1cc(N2C3COCC2CN(C(=O)[C@H]2C[C@H](O)CN2c2ccc(Cl)cc2)C3)ccc1Cl
Observed: cell-free assay
Tested at: 10 µM
target | inhibition
CHRM5 (Homo sapiens, UniProt P08912) | -4.29%
TMEM97 (Homo sapiens, UniProt Q5BJF2) | 83.6%
CHRM4 (Homo sapiens, UniProt P08173) | -3.29%
ADRB1 (Homo sapiens, UniProt P08588) | -26.2%
HTR6 (Homo sapiens, UniProt P50406) | -8.16%
DRD1 (Homo sapiens, UniProt P21728) | 40.3%
CHRM2 (Homo sapiens, UniProt P08172) | 8.64%
ADRA1A (Homo sapiens, UniProt P35348) | 17%
HRH2 (Homo sapiens, UniProt P25021) | 27.7%
HRH3 (Homo sapiens, UniProt Q9Y5N1) | 17.3%
SIGMAR1 (Homo sapiens, UniProt Q99720) | 85%
ADRA1B (Homo sapiens, UniProt P35368) | -12.1%

Block 3
Target: Receptor-interacting serine/threonine-protein kinase 2 (RIPK2, Homo sapiens, UniProt O43353)
Chain of UniProt O43353 (whole entry, looked up): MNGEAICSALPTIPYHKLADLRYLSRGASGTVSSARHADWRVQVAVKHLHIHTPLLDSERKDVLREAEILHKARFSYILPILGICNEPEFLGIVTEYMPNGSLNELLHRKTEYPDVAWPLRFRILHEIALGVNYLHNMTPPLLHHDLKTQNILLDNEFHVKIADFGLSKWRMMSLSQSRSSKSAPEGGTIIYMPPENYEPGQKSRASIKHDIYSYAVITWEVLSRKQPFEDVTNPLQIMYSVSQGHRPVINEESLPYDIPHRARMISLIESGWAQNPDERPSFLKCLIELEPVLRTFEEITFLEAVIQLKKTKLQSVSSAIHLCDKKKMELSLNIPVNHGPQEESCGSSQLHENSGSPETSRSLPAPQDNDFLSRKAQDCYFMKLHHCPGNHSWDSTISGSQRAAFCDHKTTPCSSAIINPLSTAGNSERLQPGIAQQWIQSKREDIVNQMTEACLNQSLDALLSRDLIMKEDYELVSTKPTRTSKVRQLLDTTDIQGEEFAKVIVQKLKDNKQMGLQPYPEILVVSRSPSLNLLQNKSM
Observed: enzyme activity
Mode: inhibitor
Tested at: 0.5 µM
Baseline: control
SMILES | remaining activity [%]
O=C1Cc2c([nH]c3ccc(Br)cc23)-c2ccccc2N1 | 75.9
O=c1cc(N2CCOCC2)oc2c(-c3ccccc3)cccc12 | 89.9
Oc1cccc(-c2nc(N3CCOCC3)c3oc4ncccc4c3n2)c1 | 87.4
COc1ccc(COc2ccc(Cc3cnc(N)nc3N)cc2OC)cc1 | 81.9
O=C1NC(=O)c2c1c1c3ccccc3[nH]c1n1cncc21 | 67.5
c1ccc(-c2n[nH]c3c2oc2ccccc23)cc1 | 78.8
CCCCc1c(-c2ccc(OC)cc2)[nH]c2nccnc12 | 71
O=C1Nc2ccccc2/C1=C\c1c(Cl)[nH]c2ccccc12 | 85.4
CCCNC(=O)Nc1ccc(Oc2ncnc3cc(OC)c(OC)cc23)cc1Cl | 84.8
Cc1ccc(S(=O)(=O)/C=C/C#N)cc1 | 93.8
c1ccc2c(-c3ccncc3)c[nH]c2c1 | 89.9
COc1cccc(-c2cc(=O)c3ccccc3o2)c1N | 87.5
N#Cc1cnc2cnc(NCc3cccnc3)cc2c1Nc1ccc(F)c(Cl)c1 | 85.3
O=C1Nc2ccc(Br)cc2/C1=C/c1cc2c([nH]1)CCCC2 | 87.2
O=C1NC(=O)c2c1c1c3ccccc3[nH]c1c1[nH]c3cc(Br)ccc3c21 | 99.6
Cc1cc(Nc2cc(N3CCN(C)CC3)nc(Sc3ccc(NC(=O)C4CC4)cc3)n2)[nH]n1 | 104
CN1CCN(c2ccc3nc(-c4c(N)c5c(F)cccc5[nH]c4=O)[nH]c3c2)CC1 | 93
COc1ccc2c(c1)c(C1=C(c3c[nH]c4ccccc34)C(=O)NC1=O)cn2CCCN(C)C | 70.2
O=Nc1c(-c2c(O)[nH]c3cc(Br)ccc23)[nH]c2ccccc12 | 75.2
CN(C)S(=O)(=O)c1ccc2c(c1)/C(=C/c1cc3c([nH]1)CCCC3)C(=O)N2 | 88.9
O=C(c1cc2cc(O)ccc2[nH]1)c1cc2cc(O)ccc2[nH]1 | 37.8

Block 4
Species: human
Sample: microsomes or S9
Tested at: 2 µM
Time: 0.5 h
Structure (SMILES) | remaining compound
COc1ccc(Cl)c(OC)c1C1=NOC(C)(C(=O)Nc2ccccn2)C1 (stereo not drawn) | 41.3%
COc1ccccc1Nc1nc2nccc(-c3ccc4c(c3)OCO4)c2c(=O)[nH]1 | 56.1%
Cc1cc(C)nc(Nc2n[nH]c(COc3ccccc3)n2)n1 | 76.8%
COc1cc(OC)cc(C2CC(=O)c3cc(OC)cc(OC)c32)c1 (stereo not drawn) | 32.3%
CC(C)Cn1c(NCCN(C)C)nc2c1c(=O)[nH]c(=O)n2C | > 99%
C[S+]([O-])c1nc(-c2cccs2)cc(-c2ccccc2)c1C#N (stereo not drawn) | 3.06%
COc1cc(C#N)cc(Br)c1OCCCn1ccnc1 | 77.1%
O=C(CN1C(=O)CCC1=O)N1CC(S(=O)(=O)C2CCCCC2)C1 | 65.4%
COc1ccc(C(=O)C2=CN(c3ccc(C#N)cc3)c3cc(F)ccc3S2(=O)=O)cc1 | > 100%
CCS(=O)(=O)N1CC(=O)N(Cc2ccc(OC(C)C)cc2)C(C)(C(=O)NCc2ccccc2)C1 (stereo not drawn) | 91.4%
O=C(CCCOc1ccccc1)Nc1ccccc1-c1ccccc1 | < 1%
CS(=O)(=O)c1ccc(Oc2cc(F)cc(C(=O)O)c2)c2c1[C@H](O)C(F)(F)C2 | > 99.9%

For quick reference, copied from above (block 1):
Structure (SMILES) | fluorescence polarization change
O[C@H]1C[C@@H](c2ccccc2)[C@]2(c3ccc(Cl)cc3)Oc3cc(OCCN4CCCC4)ccc3[C@]12O | 73.6 mP
CCOCCOCCN(OC)C(=O)[C@H]1[C@@H](O)[C@@]2(O)c3c(OC)cc(OC)cc3O[C@@]2(c2ccc(OC)cc2)[C@@H]1c1ccccc1 | 10.8 mP
COc1ccc([C@@]23Oc4cc(OC)cc(OC)c4[C@]2(O)[C@H](O)[C@H](C(=O)NOCc2ccccc2)[C@H]3c2ccccc2)cc1 | 5.6 mP
COC(=O)[C@@H]1[C@@H](c2ccccc2)[C@]2(c3ccc(OC)cc3)Oc3cc(OC)cc(OC)c3[C@@]23NC(C2CCC2)=N[C@@]13O | 24.9 mP
COc1ccc([C@]23[C@@H](c4ccccc4)C[C@@H](O)[C@@]2(O)c2c(F)cccc2N3C)cc1 | 9 mP
COC(=O)[C@@H]1[C@@H](c2ccccc2)[C@]2(c3ccc(OC)cc3)Oc3cc(OC)cc(OC)c3[C@@]23NC(C2CCCCC2)=N[C@@]13O | 43.2 mP
COC(=O)[C@H]1[C@@H](O)[C@@]2(O)c3c(OC)cc(OS(=O)(=O)c4ccc(C)cc4)cc3O[C@@]2(c2ccc(OC)cc2)[C@@H]1c1ccccc1 | -4.8 mP
COC(=O)[C@@H]1[C@@H](c2ccccc2)[C@]2(c3ccc(OC)cc3)Oc3cc(OC)cc(OC)c3[C@@]23NC(N2CCOCC2)=N[C@@]13O | 30.4 mP
